Measurements of several laboratories.
Numbered parts are unrelated; each lists some results of a single study. Substitutions count along the parent as printed.

Set 1
Target: Prothrombin, mature alpha-thrombin (F2, Homo sapiens, UniProt P00734)
Method: aptamer microarray, sandwich
Molecule type: DNA with 2'F-ANA
Medium: in vitro
Concentration: 200 nM
Notes: whole 15-mer aptamer, many near background
With: Cy3 exosite-II aptamer, 400 nM
Direction: higher = stronger binding
Quantity: mean fluorescence intensity
Sequence: GGTTGGTGTGGTTGG
Modification = 2'F-ANA at 2 6 7 9 10 11 12; result = 145 a.u.
Modification = 2'F-ANA at 3 4 5 8 9 10 13 14 15; result = 59.6 a.u.
Modification = 2'F-ANA at 1 2 3 6 8 10 11 13 14; result = 62.2 a.u.
Modification = 2'F-ANA at 2 3 11 12; result = 1120 a.u.
Modification = 2'F-ANA at 1 2 3 5 7 9; result = 65.7 a.u.
Modification = 2'F-ANA at 1 3 4 5 6 9 10 13; result = 46.1 a.u.
Modification = 2'F-ANA at 2 4 5 8 9 10 14; result = 45.7 a.u.
Modification = 2'F-ANA at 3 4 7 8 10 11 12 13 14; result = 198 a.u.

Set 2
Target: CCND1, cyclin fold, Cln2 fusion (human)
Method: yeast growth competition, sequencing
Medium: yeast
Notes: weak parent motif
Reference: not given
Direction: higher = stronger binding
Quantity: normalised enrichment score
Starting sequence: viral docking peptide; TSVRRALFTGGSD; partner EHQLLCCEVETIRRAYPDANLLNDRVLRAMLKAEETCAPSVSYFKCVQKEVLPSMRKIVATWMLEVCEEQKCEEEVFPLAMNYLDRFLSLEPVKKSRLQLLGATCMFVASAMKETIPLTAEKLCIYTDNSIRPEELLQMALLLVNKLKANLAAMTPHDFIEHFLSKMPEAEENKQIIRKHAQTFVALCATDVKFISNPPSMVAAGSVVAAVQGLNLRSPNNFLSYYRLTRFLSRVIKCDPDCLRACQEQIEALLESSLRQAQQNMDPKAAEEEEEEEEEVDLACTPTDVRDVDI
Substitution = TQVRRALFTGGSD [S2Q]; result = 0.194
Substitution = TSVQRALFTGGSD [R4Q]; result = 0.42
Substitution = TSVRRALFTGTSD [G11T]; result = 0.696
Substitution = TSVRRALFTGDSD [G11D]; result = 0.83
Substitution = TSVRRALFTGQSD [G11Q]; result = 0.461
Substitution = TWVRRALFTGGSD [S2W]; result = 0.153
Substitution = TSVRRALFRGGSD [T9R]; result = 0.78
Substitution = TSVRRALDTGGSD [F8D]; result = -0.0358
Substitution = TSVRRALFCGGSD [T9C]; result = 0.416
Substitution = TSVRKALFTGGSD [R5K]; result = 0.225
Substitution = TSVRRALFTCGSD [G10C]; result = 0.22
Substitution = TSVGRALFTGGSD [R4G]; result = -0.272
Substitution = TSVRRNLFTGGSD [A6N]; result = 0.134
Substitution = TSVRRAQFTGGSD [L7Q]; result = -0.058
Substitution = TSVPRALFTGGSD [R4P]; result = 0.386
Substitution = TSVRRALQTGGSD [F8Q]; result = 0.0253

Set 3
Target: RING finger protein unkempt homolog, zinc fingers 1-6, GST-SBP tag (UNK, Homo sapiens, UniProt Q9C0B0, residues 30-357)
Method: RNA Bind-n-Seq
Molecule type: RNA
Medium: in vitro
Concentration: not given
Notes: RNA with constant flanks, human-mouse chimeric sites, ends assumed
Reference: input RNA pool
Direction: higher = stronger binding
Quantity: bound/input enrichment
All sequences stand within: GGGAGUUCUACAGUCCGACGAUC … CAACAGAGGAUUGAGCAUCA
Residues (chain): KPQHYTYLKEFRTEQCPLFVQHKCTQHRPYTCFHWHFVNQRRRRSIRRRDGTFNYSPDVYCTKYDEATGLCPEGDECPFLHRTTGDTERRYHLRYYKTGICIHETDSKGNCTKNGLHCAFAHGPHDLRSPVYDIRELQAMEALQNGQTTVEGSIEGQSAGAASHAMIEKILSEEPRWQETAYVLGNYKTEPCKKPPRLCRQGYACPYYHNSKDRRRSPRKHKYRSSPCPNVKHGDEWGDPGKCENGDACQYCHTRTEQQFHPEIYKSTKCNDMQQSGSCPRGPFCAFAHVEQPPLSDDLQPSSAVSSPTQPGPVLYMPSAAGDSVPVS
Sequence = AAGCAACGCAAACUUGAAACAAUUCGUUAUCUUGCAGCCUCAGUGUUCACUUGCUUGGCGAUAGCAUUGGGGUUUUAUAUAGAUUCUAAGGAGAACUGACGAUGAUGCUGCCGCUGCUGC; result = 0.193 ratio
Sequence = GGAUUCCGCUUCCGGUUCCGUUGGGCUCGGUUCUCUCCUGAGCUACGGUCCCUGGCACUCUCAAUCCGCCAUCCAACAAACAUGGAUCAGGUAAUGCAGUUUGUGGAGCCCAGCCGGCAG; result = 0.0731 ratio
Sequence = GAUCUCGUCUGAGCAUCAGGGGCCUCCUUUCGUAUAGUCACUGCUUCUGCAUCAGAUACUUUCAGCUGCAACUCCCUACUGGGUGGGGCACCCAUUUCAGGCAGAAGGUUUUGGUACCCU; result = 0.252 ratio
Sequence = ACCAUUUUCGCGGUUCAGGCUUUGUGUGUAGUUCACUUACGGUAUUAAAUUAUUAUUCUGCUUAGCUUAUAAUAAGGAUUACAAUUGGAUUUAAGUAUACUGAAUGUUACUCUGAAACUU; result = 0.771 ratio
Sequence = GCUCCUCCCCGCUCUGCCCCUGCCUGCCACUGGGCUGGGACCAGAAUCCAGCUUUCUUUUAAAACUCUCAGUGUAACUGUAUCCCGUUUUUUUCUUUUUUUUUUAAAUAGUGUAUUUUUU; result = 25.3 ratio
Sequence = UUACCCGAGAACGAGGAUGAAUUGGAGAGCACCAACAGGCGCUACACCAAGAGAGACUGCAGCACUUUCCUCAGAACUAGUGAGACGGGCAUCGUGGACCAGGUCAUGGUCACUCUCAAC; result = 0.183 ratio
Sequence = CACACACUCUUCUGUGGCACCCUCAUUUUGCAGGCCCGGGCCUAUGUGGGACCGCACGUCCUGGCAGUGGUGACCCGCACAGGGUUCUGCACGGCAAAAGGGGGCCUGGUGAGCUCCAUC; result = 0.106 ratio
Sequence = CGCUGGCGUUGAACUGUGGACUCUGAUGGCCUCCAUCUCUCAGGCACGUGUGCCUUCUCUUAGUCCCUGUUUUCGGGUCACAAAGCUUCUCAGUACUGUGGUUUGAAAGCACCAGCUUUG; result = 0.145 ratio

Set 4
Target: HLA class I histocompatibility antigen, C alpha chain, allele C*04:01 (Homo sapiens, UniProt P10321)
Effect on: peptide-MHC binding
Molecule type: peptide
Concentration: concentration not given
Quantity: binding
Molecule = MVRVLTVIKEY; result = inactive
Molecule = LIDGRTSFY; result = inactive
Molecule = MPYAAHDPI; result = inactive
Molecule = YYIIETEHL; result = inactive
Molecule = AENQLFHST; result = inactive
Molecule = KLMDVVYSI; result = inactive
Molecule = MVIKWIHER; result = inactive
Molecule = FYYNAFHW; result = inactive
Molecule = FMYALSRAF; result = inactive
Molecule = FMFDYIPPV; result = inactive
Molecule = SLYSGFPSL; result = inactive
Molecule = RRYRRIYDL; result = inactive
Molecule = RQYERYTAL; result = inactive
Molecule = TTIGEWAFW; result = inactive
Molecule = KEMGFSPRL; result = inactive
Molecule = AVEDFLAFF; result = inactive

Excerpt of the above (set 4):
Molecule = AENQLFHST; result = inactive
Molecule = KLMDVVYSI; result = inactive
Molecule = MVIKWIHER; result = inactive
Molecule = FYYNAFHW; result = inactive
Molecule = FMYALSRAF; result = inactive
Molecule = FMFDYIPPV; result = inactive
Molecule = SLYSGFPSL; result = inactive
Molecule = RRYRRIYDL; result = inactive
